Published values collected from several papers.
Compare with care: the assays were run in different laboratories.
Observed: metabolic stability

Structure (SMILES) | host | matrix | concentration | pH | notes | quantity | result
CC(C)n1ncc2c(C(=O)NC3(C)CNC3)cc(C3CC3)nc21 | mouse | liver microsomes | – | – | – | scaled CLint | < 38 mL/min/kg
O=C(Nc1cc(-c2ccnc3[nH]ccc23)c(Cl)cn1)[C@H]1CCC[C@@H](NC(=O)C(F)(F)F)C1 | mouse | liver microsomes | – | – | – | microsomal CLint | 64.2 µL/min/mg
Fc1ccc(OCC2CN(Cc3ncc4ccccn34)CCC2(F)F)cc1 (stereo not drawn) | mouse | liver microsomes | – | – | – | scaled CLint | > 5930 mL/min/kg
[2H]C([2H])(N)C([2H])([2H])NC(=O)c1cc(C2CC2)nc2c1cnn2C(C)C | mouse | liver microsomes | – | – | – | scaled CLint | < 38 mL/min/kg
Nc1nc(SCc2ccc(Cl)cc2)nn1S(=O)(=O)c1ccc2c(c1)CCO2 | mouse | liver microsomes | 1 µM | pH 7.4 | – | microsomal CLint | 233 µL/min/mg
O=C(c1ccc(C23CC(S(F)(F)(F)(F)F)(CO2)C3)cc1)N1CCN(c2ncccn2)CC1 | mouse | liver microsomes | – | – | – | microsomal CLint | 119 µL/min/mg
C/C(=N\OCCN1CCCC1)c1ccc(C(F)(F)F)cc1 | mouse | liver microsomes | – | – | – | scaled CLint | 544 mL/min/kg
Fc1ccc(OCC2CN(Cc3ncc4ccccn34)CCC2(F)F)cc1F (stereo not drawn) | mouse | liver microsomes | – | – | – | scaled CLint | 2550 mL/min/kg
CC(C)(O)Cn1nc(-c2ccccc2)c2c(Cl)c(-c3ccccc3)nnc21 | mouse | liver microsomes | 1 µM | – | – | microsomal CLint | 523 µL/min/mg
CC(C)n1ncc2c(C(=O)NC[C@@H](C)N)cc(C3CC3)nc21 | mouse | liver microsomes | – | – | – | microsomal CLint | < 9.6 µL/min/mg
CCC(CC)CNC(=N)NC(=N)NCCCCCCNC(=N)NC(=N)NCC(CC)CC | mouse | hepatocytes | 1 µM | – | – | hepatocyte CLint | 10.7 µL/min/10⁶ cells
Cn1ncc2cc(CN3CCC(F)(F)C(COc4ccc(C#N)cc4)C3)ccc21 (stereo not drawn) | mouse | liver microsomes | – | – | – | scaled CLint | 2240 mL/min/kg
CC(=O)Nc1cc(Nc2cc(NC3CC3)n3ncc(C#N)c3n2)ccc1N1CCOCC1 | male CD-1 mouse | hepatocytes | 1 µM | – | serum-free | scaled CLint | 330 mL/min/kg
Cc1nn(C)c2nnc(-c3ccccc3)c(Cl)c12 | mouse | liver microsomes | 1 µM | – | – | microsomal CLint | > 554 µL/min/mg
CNCCNC(=O)c1cc(C2CC2)nc2c1cnn2C(C)C | mouse | liver microsomes | – | – | – | scaled CLint | 450 mL/min/kg
Cc1sc2c(c1C)C(c1ccc(Cl)cc1)=N[C@@H](CC(=O)NCCCCCCCCC(=O)N1CCN(C(=O)c3cc(Cc4n[nH]c(=O)c5ccccc45)ccc3F)CC1)c1nnc(C)n1-2 | mouse | liver microsomes | – | – | – | microsomal CLint | 307 µL/min/mg
CC(C)n1ncc2c(C(=O)NCC(C)(C)N)cc(C3CC3)nc21 | mouse | liver microsomes | – | – | – | scaled CLint | < 38 mL/min/kg
Cn1ncc2cc(CN3CCC(F)(F)C(COc4ccc(C#N)c(F)c4)C3)ccc21 (stereo not drawn) | mouse | liver microsomes | – | – | – | scaled CLint | 2700 mL/min/kg
